Measurements collected from several papers.
Protocols differ between the studies behind these lines. Numbers after ± are the reported error.
UniProt Q15759, sequence (whole entry, looked up): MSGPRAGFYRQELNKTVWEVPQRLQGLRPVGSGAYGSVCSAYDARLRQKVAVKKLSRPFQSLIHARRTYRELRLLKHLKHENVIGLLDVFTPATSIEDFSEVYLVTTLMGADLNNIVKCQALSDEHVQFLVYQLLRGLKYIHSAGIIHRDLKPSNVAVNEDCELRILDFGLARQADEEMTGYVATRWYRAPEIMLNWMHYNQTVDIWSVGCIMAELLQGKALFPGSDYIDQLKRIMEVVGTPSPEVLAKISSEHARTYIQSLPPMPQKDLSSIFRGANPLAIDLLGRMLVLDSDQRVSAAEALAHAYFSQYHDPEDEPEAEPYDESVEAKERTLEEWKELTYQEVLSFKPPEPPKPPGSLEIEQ

With `CC(C)N1CCC(NC2CCN(c3cccc(-c4cc5cc(F)ccc5[nH]4)c3)CC2)CC1` the CC50 was 5.8 µM (SK-OV-3).
`COc1ccc2c(c1)[nH]c1c(C)nccc12` has a methylation reduction of 2.84% (DU-145; bisulfite pyrosequencing, item: RASSF1A promoter CpG site 9; concentration not given; baseline: vehicle).
`COc1cc(CCC[P+](c2ccccc2)(c2ccccc2)c2ccccc2)c(OC)c2c1OCO2.[I-]` has a GI50 of -5.7 log M (SK-OV-3; SRB).
Under “log2 fold change”, `C/C=C(/C)C(=O)O[C@H]1C(C)=C2[C@H]([C@@H]1OC(=O)CCCCCCC)[C@@](C)(OC(C)=O)C[C@H](OC(=O)CCC)[C@@]1(O)[C@H]2OC(=O)[C@@]1(C)O` is recorded as -0.205 (HEK293T; RNA-seq, item: MTHFR mRNA; 10 µM, 6 h; baseline: vehicle).
The GI50 of `CN1CCN(C2(CNC3CCN(c4cccc(-c5cc6cc(F)ccc6[nH]5)c4)CC3)CCC2)CC1` is reported as 1.86 µM (IGROV-1).
`CP(=O)(O)CCCN` has an IC50 of 3.16 µM (Plasmodium falciparum; 7G8).
For `C[C@H]1CN(c2n[nH]c3nc(N[C@H]4CC[C@H](NS(=O)(=O)CCC(F)(F)F)CC4)ncc23)CCO1`, the Hill slope was 0.63 (MAPK11 (Homo sapiens, UniProt Q15759); competitor, Kinobeads competition; HEK293, K562, placenta extract).
The GI50 of `Nc1ncc(-c2nc(N3CCOCC3)nc(N3CCOCC3)n2)c(C(F)F)n1` is reported as 0.465 µM (Jurkat E6-1; cell growth; 72 h).
`O=S(=O)(c1ccc(O)cc1)c1ccc(O)cc1`: “G1 phase cells” 70.8 ± 0.86% (HepG2 spheroids; Hoechst flow cytometry; 0.01 µM, 96 h).
`COc1c(C)c2c(c(O)c1C/C=C(\C)CCC(=O)O)C(=O)OC2` gave an IC50 of 3.02 µM (Hs 729; cell proliferation).
Under “pathway fold enrichment”, `Nc1ncnc2c1ncn2[C@@H]1O[C@@H]2COP(=O)(O)O[C@H]3[C@@H](O)[C@H](n4cnc5c(=O)[nH]cnc54)O[C@@H]3COP(=O)(O)O[C@H]2[C@H]1O` is recorded as 7.67 (HFF-1; RNA sequencing Reactome analysis, item: Reactome R-HSA-9701192 defective HRR (BRCA1 loss); added: West Nile virus infection; baseline: West Nile virus infected cells, upregulated pathway).
With `COc1c(CCC[P+](c2ccccc2)(c2ccccc2)c2ccccc2)cc2c(c1OC)OCO2.[I-]` the GI50 was -5.89 log M (SNB-75; SRB).
The IC50 of `NCC(O)C1CCCCCCC1` (stereo not shown) is reported as 5.01 µM (Plasmodium falciparum; GB4).

Repeated from above:
The GI50 of `Nc1ncc(-c2nc(N3CCOCC3)nc(N3CCOCC3)n2)c(C(F)F)n1` is reported as 0.465 µM (Jurkat E6-1; cell growth; 72 h).
